# Published values collected from several papers.
# Each numbered part is a random draw from the data of one study; scales do not carry over between parts. Substitutions count along the parent as printed.

# Set 1
# Target: RNA binding protein fox-1 homolog 2, RRM domain, GST-SBP tag (RBFOX2, Homo sapiens, UniProt O43251-10, residues 100-194)
# Technique: RNA Bind-n-Seq
# Molecule type: RNA
# Matrix: in vitro
# Tested at: 365 nM
# Setting: natural RNA segment, single round, ends assumed
# Relative to: no-protein control
# Reading: higher = stronger binding
# Constant ends, left off below: GGGAGUUCUACAGUCCGACGAUC … UGGAAUUCUCGGGUGCCAA
Sequence,RBNS enrichment (R)
ACCCCCUGCUCCAGGAGAUCUACAAGGACUUGUAUAGCAGGAAAGUCCCACCCGCUGACAACGUGUUCCUUCUAUUGAUUGCACUAUUAUUUUGAGGGAAAAAAAUCUGA,1.16
CUUUUGCAGACUUUGAACAGAACUCUGGUUCCUGUGUUGCCUCUAAUGAAGUAUUCUGUUCCUAGUUGUGGGUGUGCUGGGUGGAGUGUGAAACACGACAUGAUCAAAGG,0.823
GGGGUUUUUGUUUGAUUGAUUGUUUGUUUUUGGUAACUUUACAUCAAAUACACAUUUUAUGCUAGAAAAAGUGUACUUAAUAGGAAUUAUUUUUGUUUUCCUAAAGAAAA,9.09
ACGGAGAGGACAGUUCUUAGUCCAGUAAAAAUAUGCAGAUUGUAUGUAAUGAAUUUUUGUAAACAAAGGUAAUUUCUGUCAAAUGUAUUCUUUACUUUUUUAAUAUGUUG,0.853
AUUCCAAUAAACUAUGAGGACUGCCUUAUGGAUGAUUUAAGUGUCUCACUAAAGCAUGAAAUGUGAAUUUUUAUUGUUGUACAUACGAUUUAAGGUAUUUAAAGUAUUUU,8.46
AGUGUGUUAGCAUGGAACAGAACGCCUCUCACAAAACAAAGGACCGUUUUACAAAGGAUGAUCCGACAGUGUGUCGACAUAAACUUUUACAACUGCACAGCAGCCAAAAA,3.46
GUCAGAAGAGCCCUCCUGGUUUUUUAGCGAUUUGAACCCACUAGACAAUGUGUGCACAUAGGGAAUGUCCUUUAAGAAUCAUGGAUCUCUUGUAGGCUCUCUGUGUUCCA,0.651
GAAGAAAUUAAAUGAAUUUCCCAGGCUUUUAGGAUCCUCUGAAAUUUUGAGGAUAGGUGAGGCCUGAAUUCCUGUCCUUAUUUCUUCUGACCAGAAGUUGCACAGACAUG,0.514
UUUGUAUUUUUGAGUUGGAAAUUAUGAAACUUCACCAUAUUAUGAUCAUACAUAUUUUGAAGAACAGACUGACCAAAGCUCACCUGUUUUUUGUGUUAGGUGCUUUGGCU,1.31
GAAGAGUCCCCUUCCUUGCGUGUCAGCACGGAUGCUGUGACUGCCACCUGCGUCCUCGUCAAGUGCCCGAGCUCGCCGCCGUGUGUGCUGCGCUGAGUGAGUUAUGAGGU,0.427
AUGGCUUUGGUCUCUUGCUUGUGGGACUAGCCUGGCUUGGGACUAAAUGCCCUGCUCUGAACACGAAGCUUAGUAUAAACUGAUGGAUAUCCCUACCUUGAAAGAAGAAA,26.4
UUUAGGGAGUAGUUUUCAUUCUACAUGAACUGAGGUAAUAUUAUGGUAACUCCAAUAUUUGGUUAAAAAAACUAUACAAAUCAGAAUAGUACUAAAAUACUGUAGAAUUU,0.386

# Set 2
# Target: Histone acetyltransferase KAT6A, both winged helices, GST fusion (KAT6A, Homo sapiens, UniProt Q92794, residues 1-181)
# Technique: protein binding microarray
# Molecule type: double-stranded DNA, one strand shown
# Matrix: in vitro
# Tested at: not given
# Setting: 8-mer, flanks averaged, mean of 2 arrays, mostly near background
# Relative to: not given
# Reading: higher = stronger binding
# Construct (chain): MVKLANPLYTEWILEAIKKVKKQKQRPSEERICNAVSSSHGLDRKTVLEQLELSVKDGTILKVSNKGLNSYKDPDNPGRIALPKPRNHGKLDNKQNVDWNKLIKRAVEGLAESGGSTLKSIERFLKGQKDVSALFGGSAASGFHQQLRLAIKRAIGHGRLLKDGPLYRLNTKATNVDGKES
Sequence,E-score
CTGCCATA,0.0106
CAGTGGTC,-0.0538
GCCGCGGC,0.436
CATAGGAA,-0.133
CTACGTCA,-0.0335
ACTATGCA,-0.169
GGAGCCCC,-0.0712
ATGCGTGA,0.0994
ACCTCCGT,-0.00241
GTCATCAC,-0.101
ACAACCGA,-0.0202
ACACGAAT,-0.0279
CCTGCGAG,0.0585
GTCGTAAC,-0.109
CCCACCAC,-0.178
CACACGTG,0.0492
CCGCTTAA,0.202
AAATAAAA,-0.0691
TAAGCCCA,-0.174
ACCTGGCC,-0.117
ATTTGTTA,0.0686
CACCCAAG,-0.0481
AATCCAGA,-0.144
AAACTCAA,-0.0994
AGCTGGGA,-0.259

# Set 3
# Target: Sal-like protein 4, full length isoform A (SALL4, Homo sapiens, UniProt Q9UJQ4, residues 1-1053)
# Chain of UniProt Q9UJQ4 (whole entry, looked up): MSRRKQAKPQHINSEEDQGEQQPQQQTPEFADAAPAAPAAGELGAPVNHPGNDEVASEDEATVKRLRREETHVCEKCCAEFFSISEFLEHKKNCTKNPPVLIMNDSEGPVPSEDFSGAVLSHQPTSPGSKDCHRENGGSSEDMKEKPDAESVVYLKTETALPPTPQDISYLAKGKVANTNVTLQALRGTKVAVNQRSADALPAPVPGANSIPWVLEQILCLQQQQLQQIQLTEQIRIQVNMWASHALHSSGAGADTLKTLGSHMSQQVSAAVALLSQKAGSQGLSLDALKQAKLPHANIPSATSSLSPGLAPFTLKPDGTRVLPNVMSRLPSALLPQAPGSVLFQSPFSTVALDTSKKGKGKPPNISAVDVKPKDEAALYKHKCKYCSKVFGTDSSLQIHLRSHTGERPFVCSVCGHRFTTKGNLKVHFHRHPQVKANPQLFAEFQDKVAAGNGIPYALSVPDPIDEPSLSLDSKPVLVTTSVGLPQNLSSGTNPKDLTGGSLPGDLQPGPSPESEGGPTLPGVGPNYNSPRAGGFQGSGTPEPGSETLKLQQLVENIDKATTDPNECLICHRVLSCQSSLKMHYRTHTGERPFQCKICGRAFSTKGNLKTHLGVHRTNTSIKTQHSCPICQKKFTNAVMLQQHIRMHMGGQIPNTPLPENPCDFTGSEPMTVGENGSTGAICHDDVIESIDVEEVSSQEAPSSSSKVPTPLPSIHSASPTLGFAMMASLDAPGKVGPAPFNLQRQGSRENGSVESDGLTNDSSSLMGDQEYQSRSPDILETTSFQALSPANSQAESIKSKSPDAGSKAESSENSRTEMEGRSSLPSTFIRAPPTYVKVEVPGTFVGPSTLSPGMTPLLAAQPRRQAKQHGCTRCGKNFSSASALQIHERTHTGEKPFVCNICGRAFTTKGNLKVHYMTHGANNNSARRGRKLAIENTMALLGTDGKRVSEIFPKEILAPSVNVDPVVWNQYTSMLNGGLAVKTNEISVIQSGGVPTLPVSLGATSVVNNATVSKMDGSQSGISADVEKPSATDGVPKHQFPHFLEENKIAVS
# Technique: universal PBM
# Molecule type: double-stranded DNA, one strand shown
# Matrix: in vitro
# Tested at: 600 nM
# Setting: 8-mer, flanks averaged, mean of replicates
# Reading: higher = stronger binding
Sequence,E-score
AGACCACA,-0.111
CCGAAGTC,-0.111
AATTAAAT,0.343
ACCCCTCT,-0.286
CCACCCAG,-0.329
CCTATTAA,0.227
AGACGGTG,-0.222
CCAGGCCA,-0.346
ACTAGTTC,0.14
ATGTGCCC,0.0244
ACTGAGAA,-0.00597
ACCCGTAT,-0.0607
ACTGCAGT,-0.21
AATGTTCG,0.09
AGGAACTG,-0.0418
TCCCTGCA,-0.188
ACGGTAAT,0.143
CTGACTAC,-0.0572
GCATCCCC,-0.191
AACTCTTG,-0.00949
TCCAGTAA,0.0899
CTTCGTAC,-0.00246
GACAGGAC,-0.206
CGCCAACA,0.0198
CAAACGTG,0.0553

# Set 4
# Target: Ras GTPase-activating protein-binding protein 1, C-terminal RGG region (G3BP1, Homo sapiens, UniProt Q13283)
# Chain of UniProt Q13283 (whole entry, looked up): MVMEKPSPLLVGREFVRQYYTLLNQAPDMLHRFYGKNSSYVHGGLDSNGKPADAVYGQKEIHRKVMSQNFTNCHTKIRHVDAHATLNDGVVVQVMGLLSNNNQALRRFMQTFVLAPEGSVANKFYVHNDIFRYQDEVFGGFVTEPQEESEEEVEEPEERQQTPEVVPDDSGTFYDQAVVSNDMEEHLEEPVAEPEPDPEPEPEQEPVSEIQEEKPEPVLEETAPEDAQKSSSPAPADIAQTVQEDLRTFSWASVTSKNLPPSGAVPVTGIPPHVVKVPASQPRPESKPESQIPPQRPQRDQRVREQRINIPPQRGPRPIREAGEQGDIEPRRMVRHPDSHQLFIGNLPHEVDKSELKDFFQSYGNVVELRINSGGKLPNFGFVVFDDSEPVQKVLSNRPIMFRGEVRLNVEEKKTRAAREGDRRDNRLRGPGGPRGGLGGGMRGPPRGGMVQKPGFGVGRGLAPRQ
# Technique: RNA Bind-n-Seq
# Molecule type: RNA
# Matrix: in vitro
# Tested at: 1 µM
# Setting: whole 134-nt RNA, ends assumed
# With: 150 mM KCl
# Relative to: input library
# Reading: higher = stronger binding
# Constant ends, left off below: GGGAGUUCUACAGUCCGACGAUC … UGGAAUUCUCGGGUGUCAAGG
Sequence,log2 enrichment
AGUCCUGUGCUACACAUCGUAUGUACCGAAUCGGGAAAAAGGGAAAGGGUUUUUGGGAAAGUAUUAUGUUACGCCGUUCGGAUCUGCACU,0.527
UGGCCCUGGUGGCAUGCGGGGAGGAAGAGGUGGCCUCAUGGAUCGUGGUGGUCCCGGUGGAAUGUUCAGAGGUCGCCGUGGUGGAGACAG,3.15
UCAGAGGAAUAUCCUUGACUUCCCCCAGCAUGUUUCCCCCUCCAAGGACAUCCGGACAGCCAGCACAGAGGCCGACAAGAAGCUCUCUGA,-0.535
UCUGUUUCCUCUGCCAGUGGCAAUGCAACACCUAACACUCCUGGGGAUGAGUCUCCCUGUGGUAUUAUUAUUCCUCAUGAAAACUCACCA,-0.033
AGUCCUGUGCUACACAUCGUAUGUACCGAAUCGGGAAAAAAAGGGUUUGGGAAAGGGAAAGUAUUAUGUUACGCCGUUCGGAUCUGCACU,0.505
CAAGUCCUGUGCUACACAUCGUAUGUACCGAAUCGGCCCGGGCCCGGGCCCGGGGAAAGUAUUAUGUUACGCCGUUCGGAUCUGCACUUC,-1.75
CAAGUCCUGUGCUACACAUCGUAUGUACCGAAUCGGGGUUUGGGUUUGGGUUUGGGAAAGUAUUAUGUUACGCCGUUCGGAUCUGCACUU,2.36
CCUGUGCUACACAUCGUAUGUACCGAAUCAAACCCCCAAAUUUUUUUAAAUUUUUUUAAAAAAGUAUUAUGUUACGCCGUUCGGAUCUGC,-1.1
CAAGUCCUGUGCUACACAUCGUAUGUACCGAAUCGGGUGGGAAAGGGAAAAAGGGAAAGUAUUAUGUUACGCCGUUCGGAUCUGCACUUC,1.06
UUGAAAGAAUUUGCCAACUUUGACUUUGAUGUCUGGAGGAAAAAGUAUAUGCGUUGGAUGAAUCACAAAAAGUCUCGAGUGAUGGAUUUC,-1.93
CAAGUCCUGUGCUACACAUCGUAUGUACCGAAUCGGGUUUUGGGUUUUGGUUUUGGAAAGUAUUAUGUUACGCCGUUCGGAUCUGCACUU,-1.6
UGGCCCUGGUGGCAUGCGGGGAGGAAGAGGUGGCCUCAUGGAUCGUGGUGGUCCCGGUGGAAUGUUCAGAGGUGGACGUGGUGGAGACAG,3.67
CAAGUCCUGUGCUACACAUCGUAUGUACCGAAUCGGAAAAGGGAAAAGGAAAAGGAAAGUAUUAUGUUACGCCGUUCGGAUCUGCACUUC,-1.63
ACCAUGCAGGUGGGCAUCUUUGGGAAGUGGGGCAAGGGGGAAAUAGGGAGGGGGGUAACACUUUGGGAACAGGUGGUCCCAGGUCGUUUC,-0.78

# Set 5
# Target: CCND2, cyclin fold, Cln2 fusion (human)
# Technique: yeast growth competition, sequencing
# Matrix: yeast
# Setting: weak parent motif
# Relative to: not given
# Reading: higher = stronger binding
# Parent: CDC42EP1 docking peptide (human); SLVVGKLSFDSSP; partner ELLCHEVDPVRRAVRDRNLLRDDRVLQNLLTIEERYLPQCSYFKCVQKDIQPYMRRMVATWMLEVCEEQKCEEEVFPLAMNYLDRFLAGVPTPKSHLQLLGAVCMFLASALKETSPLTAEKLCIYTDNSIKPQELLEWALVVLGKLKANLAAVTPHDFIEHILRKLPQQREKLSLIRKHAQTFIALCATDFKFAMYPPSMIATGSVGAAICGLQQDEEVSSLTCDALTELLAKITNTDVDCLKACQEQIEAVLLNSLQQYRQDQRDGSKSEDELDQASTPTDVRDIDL
Variant,normalised enrichment score
L2A,0.089
L7A,0.0396
S1A,0.1
D10A,0.137
G5A,0.0315
V3A,0.149

# For quick reference, copied from above (set 3):
Sequence,E-score
TCCCTGCA,-0.188
ACGGTAAT,0.143
CTGACTAC,-0.0572
GCATCCCC,-0.191
AACTCTTG,-0.00949
TCCAGTAA,0.0899
